Experimental data collected from several papers.

SMILES	organism	read-out	method	strain	setting	together with	MIC
CC1(C)C(NC(=O)C(=NOCC(=O)N2CC3CCCC3C2C(=O)O)c2csc(N)n2)C(=O)N1OS(=O)(=O)O (stereo not shown)	Proteus mirabilis	–	agar dilution	ATCC 49565, susceptible	–	–	0.125 µg/mL
COc1cc(C(=O)O)ccc1NC(=O)c1ccc(NC(=O)c2ccc(NC(=O)[C@H](Cc3c[nH]nn3)NC(=O)c3ccc(NC(=O)/C(C)=C/c4ccc(O)cc4)cc3)cc2)cc1O	Bacillus subtilis	–	broth microdilution	DSM 10	–	–	1 µg/mL
CC[C@H]1OC(=O)[C@H](C)[C@@H](OC(=O)Cc2cccc3ccccc23)[C@H](C)[C@@H](O[C@@H]2O[C@H](C)C[C@H](N(C)C)[C@H]2O)[C@](C)(OC)C[C@@H](C)C(=O)[C@H](C)[C@@H](O)[C@]1(C)O	Bacillus subtilis	microbial growth	–	DSM402	–	–	2 µg/mL
CC1C=CC=CC(C)C2C=CC3CC(C)(O)C(Cl)C(C)C3C2C(=O)C(Cl)(Cl)C(=O)C(C)C(=O)O1 (stereo not shown)	Staphylococcus aureus	–	–	MSSA clinical isolate	resistant: CIP,DAP,ERY,MXF	–	0.025 µg/mL
CC[C@H]1OC(=O)[C@H](C)[C@@H](OC(=O)Cc2ccc(Cl)cc2)[C@H](C)[C@@H](O[C@@H]2O[C@H](C)C[C@H](N(C)C)[C@H]2O)[C@](C)(OC)C[C@@H](C)C(=O)[C@H](C)[C@@H](O)[C@]1(C)O	Bacillus subtilis	microbial growth	–	DSM402	–	–	8 µg/mL
COc1nc(C(=O)Nc2ccc(C(=O)O)nc2OC)ccc1NC(=O)c1ccc(NC(=O)[C@H](Cc2c[nH]nn2)NC(=O)c2ccc(NC(=O)/C(C)=C/c3ccc(O)cc3)cc2)cc1	Bacillus subtilis	–	broth microdilution	DSM 10	–	–	4 µg/mL
CC1(C)[C@H](NC(=O)/C(=N\OCCN)c2nsc(N)n2)C(=O)N1OS(=O)(=O)O	Proteus mirabilis	–	agar dilution	ATCC 49565, susceptible	–	–	1 µg/mL
COc1cccc(OC)c1C(=O)N[C@@H]1C(=O)N2[C@@H]1SC(C)(C)[C@@H]2C(=O)O	Gram-negative bacteria	–	–	–	seven strains	–	256 µM
CCCCCCC#Cc1cncc(-c2nnc(SCc3ccc(Cl)cc3)n2C)c1	ESKAPE panel pathogens	–	–	–	–	–	> 64 µg/mL
Cc1c(CN(C)C(=O)/C=C/c2cnc3c(c2)CC(N)C(=O)N3)oc2ccccc12 (stereo not shown)	Klebsiella pneumoniae	–	broth microdilution	S20595	–	–	16 µg/mL
CC1(C)[C@H](NC(=O)/C(=N\OC2(C(=O)O)CC2)c2nsc(N)n2)C(=O)N1OS(=O)(=O)O	Proteus mirabilis	–	agar dilution	ATCC 49565, susceptible	–	–	1 µg/mL
CCC(=O)c1ccc(Oc2ccc(Cl)cc2Cl)c(O)c1	Mycobacterium tuberculosis	–	–	H37Rv	–	–	50 to 100 µg/mL
C=C(NC(=O)c1csc(-c2nc3c(cc2O)-c2nc(cs2)C(=O)NC(C(C)O)C(=O)NC(=C(C)OC)c2nc(cs2)C(=O)NC2c4nc(cs4)C(=O)NC(COC(=O)c4c5c6c(cccc6n4O)COC(=O)C(OC4CC(C)(O)C(N(C)C)C(C)O4)C2OC5)c2nc-3cs2)n1)C(N)=O (stereo not shown)	Staphylococcus epidermidis	–	–	MRSE-8, methicillin-resistant	–	–	0.0039 µg/mL
CC1(C)C(NC(=O)C(=NOC2(C(=O)O)CC2)c2csc(N)n2)C(=O)N1OS(=O)(=O)O (stereo not shown)	Proteus mirabilis	–	agar dilution	ATCC 49565, susceptible	–	–	≤ 0.03 µg/mL
CC1(C)S[C@@H]2[C@H](NC(=O)[C@H](NC(=O)C3=C(O)C(c4ccccc4F)NC3=O)c3ccccc3)C(=O)N2[C@H]1C(=O)O (stereo partly shown)	Escherichia coli	–	broth microdilution	ATCC 25922 wild type	–	clavulanic acid 6 µg/mL	12.5 µg/mL
O=CCNCCOn1c(=O)n(OCCNCCO)c(=O)n(OCCNCCOn2c(=O)n(OCCNCCO)c(=O)n(OCCNCCO)c2=O)c1=O	Candida tropicalis	microbial growth	broth dilution	–	–	–	32 µg/mL
C#CCO/N=C(\C(=O)N[C@@H]1C(=O)N(OS(=O)(=O)O)C1(C)C)c1csc(N)n1	Proteus mirabilis	–	agar dilution	ATCC 49565, susceptible	–	–	0.06 µg/mL
CNC(C)C1CCC(N)C(OC2C(N)CC(N)C(OC3OCC(C)(O)C(NC)C3O)C2O)O1 (stereo not shown)	Gram-negative bacteria	–	–	–	seven strains	–	0.91 µM
C=C(NC(=O)c1csc(-c2ccc(NC(=O)CCCCCBr)cc2)n1)C(=O)NC(=C)C(=O)OC	Enterococcus hirae	microbial growth	–	ATCC10541	–	–	> 20 µM
CC1(C)C(NC(=O)C(=NOC2(C(=O)O)CCC2)c2csc(N)n2)C(=O)N1OS(=O)(=O)O (stereo not shown)	Proteus mirabilis	–	agar dilution	ATCC 49565, susceptible	–	–	≤ 0.03 µg/mL
CC[C@H]1OC(=O)[C@H](C)[C@@H](OC(=O)Cc2ccccc2[N+](=O)[O-])[C@H](C)[C@@H](O[C@@H]2O[C@H](C)C[C@H](N(C)C)[C@H]2O)[C@](C)(OC)C[C@@H](C)C(=O)[C@H](C)[C@@H](O)[C@]1(C)O	Bacillus subtilis	microbial growth	–	DSM402	–	–	1 µg/mL
CC(C)(O/N=C(\C(=O)N[C@@H]1C(=O)N(OS(=O)(=O)O)C1(C)C)c1nsc(N)n1)C(=O)O	Proteus mirabilis	–	agar dilution	ATCC 49565, susceptible	–	–	16 µg/mL
C[C@@H]1C(=O)O[C@@H](C)/C=C/C=C\[C@@H](C)[C@@H]2C=C[C@@H]3C[C@@]4(C)O[C@H]4[C@@H](C)[C@H]3[C@@H]2C(=O)C(Cl)(Cl)C1=O	Staphylococcus aureus	–	–	MRSA clinical isolate	resistant: OXA,CLI,ERY	–	0.025 µg/mL
CC1(C)[C@H](NC(=O)/C(=N\OCc2c(Cl)cccc2Cl)c2csc(N)n2)C(=O)N1OS(=O)(=O)O	Proteus mirabilis	–	agar dilution	ATCC 49565, susceptible	–	–	0.25 µg/mL
COc1cc(C(=O)Nc2ccc(C(=O)O)c(O)c2OC)ccc1NC(=O)c1ccc(NC(=O)[C@H](Cc2c[nH]nn2)NC(=O)c2ccc(NC(=O)/C(C)=C/c3ccc(O)cc3)cc2)cc1	Bacillus subtilis	–	broth microdilution	DSM 10	–	–	1 µg/mL
CC[C@H]1OC(=O)[C@H](C)[C@@H](O[C@H]2C[C@@](C)(OC)[C@@H](O)[C@H](C)O2)[C@H](C)[C@@H](O[C@@H]2O[C@H](C)C[C@H](N(C)C)[C@H]2O)[C@](C)(O)C[C@@H](C)C(=O)[C@H](C)[C@@H](O)[C@]1(C)O	Bacillus subtilis	microbial growth	–	DSM402	–	–	0.5 µg/mL
COc1c(NC(=O)c2ccc(NC(=O)[C@H](Cc3c[nH]nn3)NC(=O)c3ccc(NC(=O)/C(C)=C/c4ccc(O)cc4)cc3)cc2)ccc(C(=O)Nc2ccc(C(=O)O)c(O)c2)c1O	Bacillus subtilis	–	broth microdilution	DSM 10	–	–	0.5 µg/mL
CC[C@H]1OC(=O)[C@H](C)[C@@H](OC(=O)c2ccc(N)cc2)[C@H](C)[C@@H](O[C@@H]2O[C@H](C)C[C@H](N(C)C)[C@H]2O)[C@](C)(OC)C[C@@H](C)C(=O)[C@H](C)[C@@H](O)[C@]1(C)O	Bacillus subtilis	microbial growth	–	DSM402	–	–	128 µg/mL

A few entries again:
SMILES	organism	read-out	method	strain	setting	together with	MIC
COc1cc(C(=O)Nc2ccc(C(=O)O)c(O)c2OC)ccc1NC(=O)c1ccc(NC(=O)[C@H](Cc2c[nH]nn2)NC(=O)c2ccc(NC(=O)/C(C)=C/c3ccc(O)cc3)cc2)cc1	Bacillus subtilis	–	broth microdilution	DSM 10	–	–	1 µg/mL
CC[C@H]1OC(=O)[C@H](C)[C@@H](OC(=O)c2ccc(N)cc2)[C@H](C)[C@@H](O[C@@H]2O[C@H](C)C[C@H](N(C)C)[C@H]2O)[C@](C)(OC)C[C@@H](C)C(=O)[C@H](C)[C@@H](O)[C@]1(C)O	Bacillus subtilis	microbial growth	–	DSM402	–	–	128 µg/mL
